Published values pooled from the literature.
“And” joins repeats or separate records; there may be more than shown. ± gives the spread as reported. In brackets after ≈: the same amount, converted by molar mass.
Chain of UniProt Q8IU85 (whole entry, looked up): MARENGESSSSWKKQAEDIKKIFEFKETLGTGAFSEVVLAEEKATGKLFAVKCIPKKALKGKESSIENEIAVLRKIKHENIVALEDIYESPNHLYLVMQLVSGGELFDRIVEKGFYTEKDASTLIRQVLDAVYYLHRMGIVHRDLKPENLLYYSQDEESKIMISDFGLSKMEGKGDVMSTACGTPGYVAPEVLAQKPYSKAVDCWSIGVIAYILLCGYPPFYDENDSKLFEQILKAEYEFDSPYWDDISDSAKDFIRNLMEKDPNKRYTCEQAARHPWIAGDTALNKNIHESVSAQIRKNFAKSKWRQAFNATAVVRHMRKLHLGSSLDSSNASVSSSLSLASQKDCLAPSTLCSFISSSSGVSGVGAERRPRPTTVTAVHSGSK
Chain of UniProt P10635 (whole entry, looked up): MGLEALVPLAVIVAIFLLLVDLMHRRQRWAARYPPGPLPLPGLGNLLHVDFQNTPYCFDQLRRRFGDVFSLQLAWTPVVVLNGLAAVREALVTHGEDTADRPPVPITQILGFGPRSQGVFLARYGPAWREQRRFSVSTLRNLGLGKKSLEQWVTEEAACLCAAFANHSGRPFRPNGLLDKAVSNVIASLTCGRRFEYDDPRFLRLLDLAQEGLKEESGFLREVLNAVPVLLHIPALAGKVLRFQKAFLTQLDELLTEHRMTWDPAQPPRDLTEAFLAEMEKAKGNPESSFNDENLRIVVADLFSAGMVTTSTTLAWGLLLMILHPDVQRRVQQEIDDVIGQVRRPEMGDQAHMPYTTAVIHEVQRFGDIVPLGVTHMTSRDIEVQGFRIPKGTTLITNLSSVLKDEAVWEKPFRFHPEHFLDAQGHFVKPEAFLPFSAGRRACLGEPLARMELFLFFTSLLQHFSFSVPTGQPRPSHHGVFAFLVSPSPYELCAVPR

| SMILES | tested on | assay | test system | conditions | how to read | measurement | value |
| --- | --- | --- | --- | --- | --- | --- | --- |
| Cc1noc(C)c1Cn1cc(N2C(=O)CN(Cc3cccc(O[C@@H]4O[C@H](C(=O)O)[C@@H](O)[C@H](O)[C@H]4O)c3)C2=O)cn1 | – | – | Sprague-Dawley rat, male | oral, 10 mg/kg of parent drug, 1 h | – | plasma concentration | 2540 ng/mL |
| C=CC(=O)Nc1cccc(Cn2ncc3cnc(Nc4cnn(CCOC)c4)nc32)c1 | CDK8 human | binding, KINOMEscan | – | 100 nM | lower = stronger binding | percent of control | 93% |
| C=CC(=O)Nc1cc(Nc2nccc(-c3cn(C4CC4)c4ccccc34)n2)c(OC)cc1N(C)CCNC | – | – | rat Sprague-Dawley | added: nicardipine | reference: without nicardipine | pharmacokinetic parameters | no effect |
| CC(C)OCCOCc1ccc(OCC(O)CN(N=O)C(C)C)cc1 (stereo not shown) | Salmonella typhimurium | Ames test | TA1535 | 158 µg/plate, 30 % hamster S9 | reference: solvent control | revertant fold increase | 5.1 fold |
| CCCn1ncc(CN2CCCC(C(=O)c3cccc(OC(C)C)c3)C2)c1C (stereo not shown) | Trypanosoma cruzi | reporter mRNA translation, inhibitor, refers to: Renilla luciferase mRNA | cell-free extract | concentration not given, test 1 | reference: positive over negative control | translation activity | 86.9% |
| CC(C)(O)c1ncc([S@](N)(=O)=NC(=O)Nc2c3c(cc4c2CCC4)CCC3)s1 | – | refers to: Psychiatric disorders | healthy human volunteers | oral, dose not given, single dose, all active arms | – | subjects with adverse events | 2% |
| O=C(Nc1ccc(C(F)F)cc1)[C@H](CC1CCCCC1)Nc1nn2c(=O)ccnc2s1 | – | – | Caco-2 | 5 µM, 2 h, pH 7.4 | – | efflux ratio | 18 |
| CCCCC[C@@H]1OC(=O)[C@@H](C)N(C)C(=O)[C@H](CCCCC)OC(=O)[C@@H](C)N(C)C(=O)[C@H](CCCCC)N(C)C(=O)[C@@H](C)N(C)C(=O)[C@H](CCCCC)OC(=O)[C@@H](C)N(C)C1=O | – | PAMPA | – | 500 µM, pH 7.4 | – | log Papp | -5.28 ± 0.21 |
| CC(C)[C@H](NC(=O)[C@H](Cc1c[nH]c2ccccc12)NC(=O)[C@H](CCCNC(=N)N)NC(=O)[C@H](CCCNC(=N)N)NC(=O)[C@@H](NC(=O)[C@@H](NC(=O)[C@H](CCCNC(=N)N)NC(=O)[C@@H](NC(=O)[C@@H](NC(=O)[C@H](CCCNC(=N)N)NC(=O)[C@H](CCCNC(=N)N)NC(=O)[C@@H](NC(=O)[C@H](Cc1c[nH]c2ccccc12)NC(=O)[C@H](CCCNC(=N)N)NC(=O)[C@H](CCCNC(=N)N)NC(=O)[C@@H](NC(=O)[C@H](CCCNC(=N)N)NC(=O)[C@H](CCCNC(=N)N)NC(=O)[C@@H](NC(=O)[C@H](Cc1c[nH]c2ccccc12)NC(=O)[C@H](CCCNC(=N)N)NC(=O)[C@@H](N)CCCNC(=N)N)C(C)C)C(C)C)C(C)C)C(C)C)C(C)C)C(C)C)C(C)C)C(=O)N[C@@H](CCCNC(=N)N)C(=O)N[C@@H](CCCNC(=N)N)C(=O)O | – | – | CD1 mouse, urine | intravenous, 15 mg/kg, 16 h, [14C]-labelled compound | – | creatinine | 6.7 mg/dL |
| CC[C@H](C)[C@@H]1NC(=O)[C@H](Cc2ccc(O)cc2)NC(=O)CCCSC[C@@H](C(=O)N(CC(=O)N[C@@H](CC(C)C)C(=O)NCC(N)=O)Cc2ccc(F)cc2)NC(=O)[C@H](CC(N)=O)NC(=O)[C@H](CCC(N)=O)NC1=O | – | – | human | intranasal and intravenous, 400 µg intranasal and 20 µg intravenous | – | drug-related headache | 33% |
| Cc1cc(Cl)c(OCCOCCN2CCN(C)CC2)c(Br)c1.O=C(O)C(=O)O | Trypanosoma cruzi | reporter mRNA translation, inhibitor, refers to: Renilla luciferase mRNA | cell-free extract | concentration not given, test 1 | reference: positive over negative control | translation activity | 120% |
| CN1CCCNC(=O)c2cccc(c2)C(=O)NCCCN(C)CCCNc2cccc3c2C(=O)c2cccc(c2C3=O)NCCC1 | – | – | mouse xenograft model | dose not given, day 4 | – | body weight | 26 g and 24 g and 27 g |
| Cc1nn(-c2cccc(N)c2)c(=O)c2cnc(Nc3ccc(N4CCNCC4)cc3)nc12 | CAMK1D (Homo sapiens, UniProt Q8IU85) | SelectScreen kinase | – | – | – | IC50 | > 10000 nM |
| CNc1cc(C)c(C(N)=O)cn1 | – | – | Han Wistar rats, male, plasma | oral, 30 mg/kg, 1.50 h | – | concentration at time | 81.1 µM |
| Nc1ncc(-c2cc(-c3cnn(CC(F)(F)F)c3)ncc2F)nc1C(=O)NC1CNCC(F)C1 (stereo not shown) | LKB1 | KINOMEscan | – | 1 µM | reference: DMSO control | remaining binding | 51% |
| O=C(NS(=O)(=O)c1cccs1)c1cc2ccccc2n1Cc1ccc(Br)c2ccccc12 | – | – | Sprague-Dawley rat, male, ankle joint tissue | oral, 2 mg/kg, 2 h | – | concentration | 47700 ng/g and 66700 ng/g and 137000 ng/g |
| C=C(NC(=O)c1csc(-c2nc3c(cc2O)-c2nc(cs2)C(=O)NC(C(C)O)C(=O)NC(=C(C)OC)c2nc(cs2)C(=O)NC2c4nc(cs4)C(=O)NC(COC(=O)c4c5c6c(cccc6n4O)COC(=O)C(OC4CC(C)(O)C(N(C)C)C(C)O4)C2OC5)c2nc-3cs2)n1)C(N)=O (stereo not shown) | – | – | ICR mice, Streptococcus pneumoniae ATCC 49169 infected, immunocompromised, blood | intravenous, 16 mg/kg/day three times daily | – | AUC(0-inf) | 1470 ng·h/mL |

| SMILES | tested on | assay | test system | conditions | how to read | measurement | value |
| --- | --- | --- | --- | --- | --- | --- | --- |
| COC1CN([C@H]2CC[C@H]([C@@]3(C)Oc4c(Cl)cc(C(=O)NCc5c(SC)cc(C)[nH]c5=O)c(C)c4O3)CC2)C1 | – | RNA-seq, refers to: EPN2 | human, whole blood | dose not given, 24 h | reference: pretreatment baseline | log2 fold change | 1.61 |
| O=S1(=O)CC2CCCCC2CS1 (stereo not shown) | – | phase solubility, NMR | water | 25 °C, added: hydroxypropyl-β-cyclodextrin 280 mM | – | solubility | 29.5 mM (≈ 6090 µg/mL) |
| CCCCN1C(=O)c2cccc3c(NCCCN4CCOCC4)ccc(c23)C1=O | – | – | methanol | – | – | fluorescence quantum yield | 0.47 |
| CNS(=O)(=O)Nc1nccc(Cc2c(C)c3ccc(Oc4ncccc4F)cc3oc2=O)c1F | HCC1806 | cell viability | – | 7 days | – | IC50 | 13 nM |
| COc1cccc(OC)c1-c1cc(C(=O)NC2(C(=O)O)C3CC4CC(C3)CC2C4)nn1-c1ccc(C(=O)N(C)CCCN(C)C(=O)[C@H](CCCCNC(=O)[C@H](CC(C)C)NC(=O)C2OC2C(=O)O)NC(=O)CN2CCN(CC(=O)[O-])CCN(CC(=O)[O-])CCN(CC(=O)[O-])CC2)cc1C(C)C.[177Lu+3] (mixture of isomers) | – | – | mouse HT-29 xenograft, large intestine | 72 h post injection, biodistribution | – | tissue uptake | 0.154 %ID/g |
| C=CC(=O)Nc1cc(Nc2nccc(-c3cn(C)c4ccccc34)n2)c(OC)cc1N(C)CCNC | – | – | human plasma | 5 h, storage stability, LLOQ sample | – | recovery | 95.1% |
| COCC1CN(C2CCN(c3cc(OC)c(Nc4ncc(Br)c(Nc5ccc6c(c5P(C)(C)=O)OCCO6)n4)cc3C)CC2)C1 | – | – | EGFR-mutant NSCLC patients, plasma | oral, 150 mg single dose, geometric mean | – | AUC(0-inf) | 15700 ng·h/mL |
| O=C(Nc1cnccc1-c1ccc([18F])nc1)c1ccnc(NC(=O)C2CC2)c1 | – | PET imaging | FVB/NJ mice, both sexes, brain | intravenous, 120 min post-injection | – | SUV | 0.035 |
| CCn1nc(Cl)c2c1-c1cnc(N)c(c1)O[C@H](C)c1cc(F)ccc1-c1nn(C)cc1C2 | – | – | Balb/c nude mouse female, plasma | 0.06 mg/kg twice daily for 5 days, 12 h | – | free plasma concentration | 0.00013 µM |
| O=C(c1ccccc1)N1C(c2ccc(OCC3CCN(CCCF)C3)cc2)c2ccc(O)cc2CC12CC2 (stereo not shown) | – | – | C57BL/6J mouse, plasma | oral, 25 mg/kg | – | AUC(0-t) | 2480 ng·h/mL and 3430 ng·h/mL |
| Cc1ncsc1-c1ccc(C(C)NC(=O)C2CC(O)CN2C(=O)C(NC(=O)CCCCCCCCCCN2CCCC(Nc3ncc(Cl)c(Nc4ccccc4S(=O)(=O)C(C)C)n3)C2)C(C)(C)C)cc1 (stereo not shown) | 22Rv1 | RNA-seq, refers to: RTN4RL1 mRNA | – | concentration not given | reference: DMSO | log2 fold change | -2.6 |
| O=S(=O)(NCc1ccncc1)c1ccc(C2CCCCC2)cc1 | – | – | CK-p25 mouse | 0.3 mg/kg | reference: vehicle | body weight change | 12 ± 2 g |
| COc1ccc(Nc2nc(Nc3ccc(OCCOCCOCC[18F])cc3)ncc2Br)cc1 | – | – | ICR mice, S180 tumour | intravenous, 370 kBq, 15 min | reference: tumour over muscle | uptake ratio | 1.1 |
| O=C(Nc1cnccc1-c1ccc([18F])cc1)c1ccnc(NC(=O)C2CC2)c1 | – | – | FVB/NJ mice (both sexes), large intestine | intravenous, dose not given, 120 min | – | SUV | 0.59 |
| CCCC[C@H](NC(C)=O)C(=O)N[C@@H](CO)C(=O)N[C@H](C(=O)N1CCC[C@H]1C(=O)N[C@]1(C)CCCCCCC=CCCC[C@@](C)(C(=O)N[C@@H](Cc2ccccc2)C(=O)N[C@@H](CCCCN)C(=O)N[C@@H](CCCNC(=N)N)C(=O)N[C@@H](CC(C)C)C(=O)N[C@@H](CCC(N)=O)C(N)=O)NC(=O)[C@H](CCCNC(=N)N)NC(=O)[C@H](CCCC)NC(=O)[C@H](CC(C)C)NC(=O)[C@H](CCCNC(=N)N)NC(=O)[C@H](CCCNC(=N)N)NC(=O)[C@H](CCCNC(=N)N)NC1=O)[C@@H](C)O | proteinase K (Tritirachium album) | proteolytic stability, LC-MS | – | 25 µM, 246.0 min, pH 7.4 | – | remaining intact peptide | 63.5% |
| CNC(=O)C1CCCN(C(=O)C2CC3CCC2N3C(=O)[C@@H]2C[C@@H](O)CN2C(=O)NCc2cccc(Cl)c2F)C1 (mixture of isomers) | Cytochrome P450 2D6 (CYP2D6, Homo sapiens, UniProt P10635) | enzyme activity, inhibitor, time-dependent inhibition | – | 1.85 µM, preincubated without NADPH | – | dextrorphan formation | 145 ng/mL |
| CC1(C)CC[C@]2(NC(=O)C(C)(F)F)CC[C@]3(C)[C@H](C(=O)C=C4[C@@]5(C)C=C(C#N)C(=O)C(C)(C)[C@@H]5CC[C@]43C)[C@@H]2C1 | – | – | human | oral, dose not given, added: efavirenz | reference: compound alone | Cmax decrease | 38% |

A few entries again:
| SMILES | tested on | assay | test system | conditions | how to read | measurement | value |
| --- | --- | --- | --- | --- | --- | --- | --- |
| Cc1cc(Cl)c(OCCOCCN2CCN(C)CC2)c(Br)c1.O=C(O)C(=O)O | Trypanosoma cruzi | reporter mRNA translation, inhibitor, refers to: Renilla luciferase mRNA | cell-free extract | concentration not given, test 1 | reference: positive over negative control | translation activity | 120% |
| CN1CCCNC(=O)c2cccc(c2)C(=O)NCCCN(C)CCCNc2cccc3c2C(=O)c2cccc(c2C3=O)NCCC1 | – | – | mouse xenograft model | dose not given, day 4 | – | body weight | 26 g and 24 g and 27 g |
